# Measured values gathered from unrelated publications.
# Numbered parts are unrelated; each lists some results of a single study. “And” joins repeats or separate records; there may be more than shown.
# Chain of UniProt Q9H4B4 (whole entry, looked up): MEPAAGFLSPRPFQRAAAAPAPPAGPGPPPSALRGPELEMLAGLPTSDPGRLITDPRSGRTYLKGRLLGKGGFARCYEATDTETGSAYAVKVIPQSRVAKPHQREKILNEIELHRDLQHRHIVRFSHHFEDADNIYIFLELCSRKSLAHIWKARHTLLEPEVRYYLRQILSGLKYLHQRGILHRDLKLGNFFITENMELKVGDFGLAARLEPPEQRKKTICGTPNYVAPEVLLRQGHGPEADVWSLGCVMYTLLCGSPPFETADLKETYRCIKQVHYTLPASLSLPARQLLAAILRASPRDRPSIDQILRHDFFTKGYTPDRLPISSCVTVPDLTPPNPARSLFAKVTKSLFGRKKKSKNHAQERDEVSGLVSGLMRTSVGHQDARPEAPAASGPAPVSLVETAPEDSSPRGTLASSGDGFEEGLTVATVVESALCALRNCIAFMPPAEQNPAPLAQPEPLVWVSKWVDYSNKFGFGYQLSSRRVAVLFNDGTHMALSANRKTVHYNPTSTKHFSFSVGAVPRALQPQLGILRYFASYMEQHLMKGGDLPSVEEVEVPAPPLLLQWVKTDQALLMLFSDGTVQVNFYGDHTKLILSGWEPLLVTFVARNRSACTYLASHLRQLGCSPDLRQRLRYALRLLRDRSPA
# Chain of UniProt P11802 (whole entry, looked up): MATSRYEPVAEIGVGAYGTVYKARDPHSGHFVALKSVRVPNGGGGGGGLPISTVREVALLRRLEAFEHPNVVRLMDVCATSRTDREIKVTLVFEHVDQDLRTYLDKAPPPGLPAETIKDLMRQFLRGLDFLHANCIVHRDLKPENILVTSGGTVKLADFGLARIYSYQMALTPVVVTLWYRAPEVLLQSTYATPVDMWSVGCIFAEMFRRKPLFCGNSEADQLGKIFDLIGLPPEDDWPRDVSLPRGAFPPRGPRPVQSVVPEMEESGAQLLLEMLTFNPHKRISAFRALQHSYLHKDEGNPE
# Chain of UniProt P00519 (whole entry, looked up): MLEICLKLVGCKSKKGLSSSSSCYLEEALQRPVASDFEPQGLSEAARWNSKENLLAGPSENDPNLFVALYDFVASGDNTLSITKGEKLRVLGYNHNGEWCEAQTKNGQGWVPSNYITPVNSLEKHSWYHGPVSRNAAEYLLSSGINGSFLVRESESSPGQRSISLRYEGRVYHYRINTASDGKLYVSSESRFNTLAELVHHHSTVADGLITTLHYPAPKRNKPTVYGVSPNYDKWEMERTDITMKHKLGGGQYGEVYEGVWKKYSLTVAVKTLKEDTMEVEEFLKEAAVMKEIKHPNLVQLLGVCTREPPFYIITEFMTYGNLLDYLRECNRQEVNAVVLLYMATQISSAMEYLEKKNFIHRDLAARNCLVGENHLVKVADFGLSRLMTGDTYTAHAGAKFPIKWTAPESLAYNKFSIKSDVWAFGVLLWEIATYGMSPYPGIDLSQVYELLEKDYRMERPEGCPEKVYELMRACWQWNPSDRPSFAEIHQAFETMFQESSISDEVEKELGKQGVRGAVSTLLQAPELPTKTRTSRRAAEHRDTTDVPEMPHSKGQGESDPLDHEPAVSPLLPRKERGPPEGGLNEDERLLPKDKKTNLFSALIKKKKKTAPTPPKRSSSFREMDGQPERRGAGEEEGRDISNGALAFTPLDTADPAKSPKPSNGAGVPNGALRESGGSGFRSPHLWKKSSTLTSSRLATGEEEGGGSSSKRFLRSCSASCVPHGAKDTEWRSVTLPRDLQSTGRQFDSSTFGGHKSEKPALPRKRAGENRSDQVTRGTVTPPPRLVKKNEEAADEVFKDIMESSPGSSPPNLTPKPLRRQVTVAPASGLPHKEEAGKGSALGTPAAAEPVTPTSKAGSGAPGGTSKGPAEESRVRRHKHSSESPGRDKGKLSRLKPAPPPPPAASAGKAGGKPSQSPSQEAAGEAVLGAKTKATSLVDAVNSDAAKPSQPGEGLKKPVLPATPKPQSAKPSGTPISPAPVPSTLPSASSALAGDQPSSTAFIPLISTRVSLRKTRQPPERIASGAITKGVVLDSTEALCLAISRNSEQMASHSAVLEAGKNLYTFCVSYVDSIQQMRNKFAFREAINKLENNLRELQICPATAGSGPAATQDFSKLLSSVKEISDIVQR
# Chain of UniProt Q8WXR4 (whole entry, looked up): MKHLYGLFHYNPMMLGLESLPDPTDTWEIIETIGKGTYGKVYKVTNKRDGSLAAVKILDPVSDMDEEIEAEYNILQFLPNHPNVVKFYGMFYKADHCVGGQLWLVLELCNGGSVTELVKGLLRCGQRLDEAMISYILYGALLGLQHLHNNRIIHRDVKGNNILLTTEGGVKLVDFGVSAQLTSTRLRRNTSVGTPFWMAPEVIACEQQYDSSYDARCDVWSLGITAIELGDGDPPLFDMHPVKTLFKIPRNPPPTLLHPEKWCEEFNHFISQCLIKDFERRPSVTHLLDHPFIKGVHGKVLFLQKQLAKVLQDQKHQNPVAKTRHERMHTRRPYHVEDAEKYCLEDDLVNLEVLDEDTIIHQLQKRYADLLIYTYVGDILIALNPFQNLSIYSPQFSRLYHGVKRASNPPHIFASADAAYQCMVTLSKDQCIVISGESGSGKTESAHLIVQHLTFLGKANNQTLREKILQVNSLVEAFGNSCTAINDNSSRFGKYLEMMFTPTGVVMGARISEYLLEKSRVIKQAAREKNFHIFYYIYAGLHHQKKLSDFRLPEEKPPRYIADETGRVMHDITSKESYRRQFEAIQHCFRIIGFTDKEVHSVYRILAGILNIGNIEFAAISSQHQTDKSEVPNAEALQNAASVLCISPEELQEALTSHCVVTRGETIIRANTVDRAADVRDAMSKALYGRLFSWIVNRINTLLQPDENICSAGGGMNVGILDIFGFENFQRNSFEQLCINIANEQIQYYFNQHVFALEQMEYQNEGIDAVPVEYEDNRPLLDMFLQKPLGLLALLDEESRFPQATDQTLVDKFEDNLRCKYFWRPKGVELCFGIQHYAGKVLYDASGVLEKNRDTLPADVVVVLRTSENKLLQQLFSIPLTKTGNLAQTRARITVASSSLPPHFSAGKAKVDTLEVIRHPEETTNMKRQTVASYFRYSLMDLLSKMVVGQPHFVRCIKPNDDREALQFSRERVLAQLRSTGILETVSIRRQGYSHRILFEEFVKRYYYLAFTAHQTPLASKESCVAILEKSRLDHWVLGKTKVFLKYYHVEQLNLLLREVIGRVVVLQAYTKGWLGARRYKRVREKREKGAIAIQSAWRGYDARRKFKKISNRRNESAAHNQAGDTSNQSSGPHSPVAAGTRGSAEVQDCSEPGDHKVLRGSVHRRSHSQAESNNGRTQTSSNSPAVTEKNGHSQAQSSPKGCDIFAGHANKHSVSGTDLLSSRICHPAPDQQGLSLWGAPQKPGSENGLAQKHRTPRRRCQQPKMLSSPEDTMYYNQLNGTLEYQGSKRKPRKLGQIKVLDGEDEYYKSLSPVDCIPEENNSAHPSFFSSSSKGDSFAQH
# Chain of UniProt P53671 (whole entry, looked up): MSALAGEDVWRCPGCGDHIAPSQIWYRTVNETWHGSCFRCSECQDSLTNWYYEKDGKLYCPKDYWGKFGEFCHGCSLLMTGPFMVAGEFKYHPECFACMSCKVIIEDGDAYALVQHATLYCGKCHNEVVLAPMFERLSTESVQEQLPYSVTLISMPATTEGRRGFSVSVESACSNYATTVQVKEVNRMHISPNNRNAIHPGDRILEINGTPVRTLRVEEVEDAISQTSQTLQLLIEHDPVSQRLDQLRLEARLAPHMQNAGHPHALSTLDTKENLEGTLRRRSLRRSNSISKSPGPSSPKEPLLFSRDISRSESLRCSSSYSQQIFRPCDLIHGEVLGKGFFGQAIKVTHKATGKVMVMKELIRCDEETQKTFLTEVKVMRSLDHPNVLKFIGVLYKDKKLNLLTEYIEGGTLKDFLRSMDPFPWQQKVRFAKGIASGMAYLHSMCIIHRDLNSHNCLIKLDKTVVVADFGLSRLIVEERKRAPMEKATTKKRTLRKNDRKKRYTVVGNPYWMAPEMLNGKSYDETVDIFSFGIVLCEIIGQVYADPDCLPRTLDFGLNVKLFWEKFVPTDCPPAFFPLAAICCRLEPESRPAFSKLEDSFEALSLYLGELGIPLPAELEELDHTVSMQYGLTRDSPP
# Chain of UniProt Q13705 (whole entry, looked up): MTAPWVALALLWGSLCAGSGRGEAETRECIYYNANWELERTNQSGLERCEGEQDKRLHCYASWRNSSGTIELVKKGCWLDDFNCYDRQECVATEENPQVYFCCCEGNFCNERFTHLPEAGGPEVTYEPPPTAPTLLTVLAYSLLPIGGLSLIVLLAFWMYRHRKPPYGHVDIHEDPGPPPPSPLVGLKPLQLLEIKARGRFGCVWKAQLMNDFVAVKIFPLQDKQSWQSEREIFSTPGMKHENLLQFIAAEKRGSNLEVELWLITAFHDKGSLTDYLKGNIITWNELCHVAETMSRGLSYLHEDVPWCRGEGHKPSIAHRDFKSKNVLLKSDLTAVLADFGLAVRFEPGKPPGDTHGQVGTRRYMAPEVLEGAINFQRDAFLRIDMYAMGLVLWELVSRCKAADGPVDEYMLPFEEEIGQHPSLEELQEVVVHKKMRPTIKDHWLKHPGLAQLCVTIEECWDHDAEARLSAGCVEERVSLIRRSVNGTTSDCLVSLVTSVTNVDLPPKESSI

# Sample 1 — concentration: 0.1 µM
# Compound: Nc1c(C(=O)NCc2ccc(C(=O)NCCCC3CCCCC3)cc2)cnn1-c1ccccc1
target,assay,remaining binding [%]
"Epidermal growth factor receptor (EGFR, Homo sapiens, UniProt P00533, del747-750/T751S)","cell-free assay, competition with immobilised ligand",84
"Mast/stem cell growth factor receptor Kit, autoinhibited (KIT, Homo sapiens, UniProt P10721)","cell-free assay, competition with immobilised ligand",100
"Dual specificity protein kinase CLK4 (CLK4, Homo sapiens, UniProt Q9HAZ1)","cell-free assay, competition with immobilised ligand",96
"Tyrosine-protein kinase ABL1, non-phosphorylated (ABL1, Homo sapiens, UniProt P00519)","cell-free assay, competition with immobilised ligand",81
"Activin receptor type-2B (ACVR2B, Homo sapiens, UniProt Q13705)","cell-free assay, competition with immobilised ligand",100
"Cyclin-dependent kinase 4, with cyclin D1 (CDK4, Homo sapiens, UniProt P11802)","cell-free assay, competition with immobilised ligand",100
"Tyrosine-protein kinase Lck (LCK, Homo sapiens, UniProt P06239)","cell-free assay, competition with immobilised ligand",82
"Receptor-type tyrosine-protein kinase FLT3 (FLT3, Homo sapiens, UniProt P36888, D835H)","cell-free assay, competition with immobilised ligand",100
"Mitogen-activated protein kinase kinase kinase 1 (MAP3K1, Homo sapiens, UniProt Q13233)","cell-free assay, competition with immobilised ligand",96
"AP2-associated protein kinase 1 (AAK1, Homo sapiens, UniProt Q2M2I8)",binding,100
"Receptor-type tyrosine-protein kinase FLT3 (FLT3, Homo sapiens, UniProt P36888, R834Q)","cell-free assay, competition with immobilised ligand",100
"Dual specificity protein kinase CLK1 (CLK1, Homo sapiens, UniProt P49759)","cell-free assay, competition with immobilised ligand",100
"Serine/threonine-protein kinase mTOR (MTOR, Homo sapiens, UniProt P42345)","cell-free assay, competition with immobilised ligand",100
"Serine/threonine-protein kinase VRK2 (VRK2, Homo sapiens, UniProt Q86Y07)","cell-free assay, competition with immobilised ligand",92
"Mitotic checkpoint serine/threonine-protein kinase BUB1 (BUB1, Homo sapiens, UniProt O43683)","cell-free assay, competition with immobilised ligand",86
"Phosphatidylinositol 4,5-bisphosphate 3-kinase catalytic subunit alpha isoform (PIK3CA, Homo sapiens, UniProt P42336, H1047Y)","cell-free assay, competition with immobilised ligand",77
"LIM domain kinase 2 (LIMK2, Homo sapiens, UniProt P53671)","cell-free assay, competition with immobilised ligand",100
"Serine/threonine-protein kinase PLK3 (PLK3, Homo sapiens, UniProt Q9H4B4)","cell-free assay, competition with immobilised ligand",100
"Ephrin type-A receptor 3 (EPHA3, Homo sapiens, UniProt P29320)","cell-free assay, competition with immobilised ligand",100
"Mitogen-activated protein kinase kinase kinase 14 (MAP3K14, Homo sapiens, UniProt Q99558)","cell-free assay, competition with immobilised ligand",100
"Receptor-interacting serine/threonine-protein kinase 4 (RIPK4, Homo sapiens, UniProt P57078)","cell-free assay, competition with immobilised ligand",100

# Sample 2 — SMILES: COc1cc2ncc(-c3ccccc3)nc2cc1OC; effect on: enzyme activity; action: inhibitor; concentration: 0.5 µM; relative to: control
target,remaining activity [%]
"RAC-beta serine/threonine-protein kinase (AKT2, Homo sapiens, UniProt P31751)",86.7
"Dual specificity protein kinase CLK3 (CLK3, Homo sapiens, UniProt P49761)",90.1
"Discoidin domain-containing receptor 2 (DDR2, Homo sapiens, UniProt Q16832)",96.9
"Serine/threonine-protein kinase MRCK beta (CDC42BPB, Homo sapiens, UniProt Q9Y5S2)",93.3
"Hepatocyte growth factor receptor (MET, Homo sapiens, UniProt P08581)",92.6
"Cyclin-dependent kinase 9, with cyclin K (CDK9, Homo sapiens, UniProt P50750)",102
"Serine/threonine-protein kinase DCLK2 (DCLK2, Homo sapiens, UniProt Q8N568)",96
"Serine/threonine-protein kinase PLK3 (PLK3, Homo sapiens, UniProt Q9H4B4)",98.3
"Myosin-IIIb (MYO3B, Homo sapiens, UniProt Q8WXR4)",84.6
"Ribosomal protein S6 kinase alpha-4 (RPS6KA4, Homo sapiens, UniProt O75676)",85.4
"Rho-associated protein kinase 1 (ROCK1, Homo sapiens, UniProt Q13464)",95.5
"Mitogen-activated protein kinase 1 (MAPK1, Homo sapiens, UniProt P28482)",95.6
"Mitogen-activated protein kinase 14 (MAPK14, Homo sapiens, UniProt Q16539)",122
"Misshapen-like kinase 1 (MINK1, Homo sapiens, UniProt Q8N4C8)",93.5

# Sample 3 — method: RNA Bind-n-Seq; form: RNA; sample: in vitro; concentration: not given; notes: RNA with constant flanks, ends assumed; relative to: input RNA pool; direction: higher = stronger binding
# Target: RING finger protein unkempt homolog, zinc fingers 1-6, GST-SBP tag (UNK, Homo sapiens, UniProt Q9C0B0, residues 30-357)
# Chain of UniProt Q9C0B0 (30-357, looked up): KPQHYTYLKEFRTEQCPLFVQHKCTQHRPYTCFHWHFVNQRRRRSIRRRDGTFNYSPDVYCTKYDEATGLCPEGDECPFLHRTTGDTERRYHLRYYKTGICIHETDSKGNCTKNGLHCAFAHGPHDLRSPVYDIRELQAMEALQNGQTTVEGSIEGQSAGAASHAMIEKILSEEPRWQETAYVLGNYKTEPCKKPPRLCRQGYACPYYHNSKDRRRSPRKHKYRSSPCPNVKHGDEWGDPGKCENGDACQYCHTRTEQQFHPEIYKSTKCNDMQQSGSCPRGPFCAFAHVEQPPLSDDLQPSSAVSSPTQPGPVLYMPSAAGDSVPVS
# Constant ends, left off below: GGGAGUUCUACAGUCCGACGAUC … CAACAGAGGAUUGAGCAUCA
Strand,bound/input enrichment [ratio]
AGUAUAUCCAGCAGGGAUGUUCAGCCUGUUGCCUAUGAAGAGCCUAAACAUUGGUGUUCAACCGUCUACUAUGAAUUAAACAAUCGUGUUGGAGAAGCUUUUCAUGCAUCUUCUACUAGU,0.25
ACAAAAAACAAACGACCAUUUCUCUAAGCCAAGUUUCUUUUAGAGACAUUUUAACUUAUUCCGCUGAACUCUAGAUUUUUUGGUAAACUAUCAAUCUGUAUAUGUUGUAAUUAAGUGUCU,0.91
AUAAAGACUGAGCACUACAAAACAGAUCUUCAUUCUCCAAGAGGACAAGCGUCGGACCGUAUAAACCCCAUGUCUAGGGUGCUAAGCCCCCUGAGUCCUCAAAUCAGCCCUUGCAGCUCC,0.329
GAAUUGAUUAAGGAAAAACUUAUUCUUCCCUAUGUGGAACUGGAUCUGCAUAGCUAUGAUUCCGGCACCGAGAAUCGUGAUGCCACCAAUGACCAGGUCACCAAAGAUGCUGCAGAGGCU,0.199
AUCUCCCGGUCCCCCGCCCGCGGCAGACAUGGCGGUGGACUCGUCUAUGGAGCUGCUAUUUUCCGAUACUUUUAAACAUCCGAGCGCUGAGCAAAGUUCUCAUAUAGAUGUGGUUCGUUU,0.277
UACUUACCUCUUGCAAAAAAAAGAAAAAAGAAAAAAGUUCAUUUAUUCAUUCUGUUUCUAUACCGCAAAACUGAAUGUCAAAAGUACCUUCUGUCCACACACACAAAAUCUGCAUGUAUU,0.405
AUAGUAAAAGGGGGUGCUGCAGAGAAAAGUGGUCUGUUGCAUGAAGGAGAUGAAGUUCCCGAGAUUAAUGGCAUUGAAAUUCGGGGGAAAGAUGUCAAUGAGGUUUUUGACUUGUUGUCU,0.978
GAAUGUGGCUGGAAGGAUCAGUUGAAGGCACACUGUAAAGAGGUAAUUAAAGAAAAAGGACCCGAACACGUUACUGUUGAUGACUUGGUGGCUGAAAUCACUCCAAAAGGCAGAGCCCUG,0.195

# Mixed results
SMILES,system,conditions,how to read,endpoint,result
COc1ccc(-c2c(Nc3ccccn3)[nH]c3c(C4=CCCCC4)c(-c4ccccc4)nn3c2=O)cc1,"human, plasma","oral, 50 mg once daily, cycle 1",relative to: trough concentration,swing,1.02 and 0.534 and 0.495

# A few entries again (sample 2):
target,remaining activity [%]
"Dual specificity protein kinase CLK3 (CLK3, Homo sapiens, UniProt P49761)",90.1
"Discoidin domain-containing receptor 2 (DDR2, Homo sapiens, UniProt Q16832)",96.9
"Serine/threonine-protein kinase MRCK beta (CDC42BPB, Homo sapiens, UniProt Q9Y5S2)",93.3
"Hepatocyte growth factor receptor (MET, Homo sapiens, UniProt P08581)",92.6
"Cyclin-dependent kinase 9, with cyclin K (CDK9, Homo sapiens, UniProt P50750)",102
"Serine/threonine-protein kinase DCLK2 (DCLK2, Homo sapiens, UniProt Q8N568)",96
"Serine/threonine-protein kinase PLK3 (PLK3, Homo sapiens, UniProt Q9H4B4)",98.3
